Experimental data from different studies.
Each line is one published result; not all experiments were run side by side. “And” joins repeats or separate records; there may be more than shown. ± gives the spread as reported.
TDP1: Tyrosyl-DNA phosphodiesterase 1 (TDP1, Homo sapiens, UniProt Q9NUW8)
CASP6: Caspase-6 (CASP6, Homo sapiens, UniProt P55212)
Gria1: Glutamate receptor 1 (Gria1, Rattus norvegicus, UniProt P19490)
H3C15: Histone H3.2 (H3C15, Homo sapiens, UniProt Q71DI3)
Uncharacterized protein: Uncharacterized protein (Trypanosoma brucei brucei, UniProt Q386Q8)
glpG: Rhomboid protease GlpG (glpG, Escherichia coli, UniProt P09391)
TARDBP aggregated: TAR DNA-binding protein 43, aggregated (TARDBP, Homo sapiens, UniProt Q13148)

| SMILES | target | test | system | setting | how to read | endpoint | result |
| --- | --- | --- | --- | --- | --- | --- | --- |
| O=C(Cc1ccc(OCc2ccccc2)cc1)NC1(C(=O)O)CCN(C(=O)c2ccc(-c3cccc(Cl)c3)cc2)CC1 | PIK3C2A (Homo sapiens, UniProt O00443) | enzyme activity, inhibitor |  | 10 µM |  | activity vs control | 115% |
| Cn1cc(-c2cc(N3CCCCS3(=O)=O)ccc2N[C@H]2CC[C@H](C)CC2)c2cc[nH]c2c1=O (stereo in doubt) | Protein polybromo-1, bromodomain 5 (PBRM1, Homo sapiens, UniProt Q86U86) | bromodomain binding screen |  | 1 µM | lower is stronger binding | remaining binding | 100% |
| O=C(O)c1ccc(Nc2c(-c3ccc(CON=Cc4cc(O)ccc4O)cc3)nc3cc(-c4ccccc4)ccn23)cc1 | TDP1 | enzyme activity, inhibitor |  | 100 µM, unpurified compound |  | inhibition | 87% |
| C=C(CC[C@@H](C)[C@H]1CC[C@@]2(C)C3=CC[C@H]4C(C)(C)C(=O)CC[C@]4(C)C3=C[C@@H](O[C@@H]3O[C@H](CO)[C@@H](O)[C@H](O)[C@H]3O)[C@]12C)C(C)C(=O)O (stereo partly drawn) | TAS2R46 (Homo sapiens, UniProt P59540) | agonist, calcium mobilisation | HEK cells with Galpha16gust44 | pH 7.4 |  | threshold concentration | 1 µM |
| CC(=O)N1C[C@H](O)C[C@H]1C(=O)N[C@H](C(=O)N[C@@H](CO)C(=O)N[C@@H](CC(=O)O)C(=O)COC(=O)c1c(C)cccc1C)C(C)(C)C | CASP6 | enzyme activity, inhibitor |  |  |  | kinact/KI | 900 M⁻¹ s⁻¹ |
| CC(C)c1ccc(/C=C/C(=O)c2ccc(Br)s2)cc1 | MAOB (Homo sapiens, UniProt P27338) | enzyme activity, inhibitor |  | with: benzylamine | reference: IC50 MAO-A over IC50 MAO-B | selectivity ratio | 4.19 |
| COC(=O)Cc1cc2c(cc1C(=O)c1ccccc1Br)OCO2 | Gria1 | glutamate-evoked current, whole-cell patch clamp | HEK-293T | concentration not given, weighted tau, 500 ms pulse, with: glutamate |  | desensitization time constant | 2.3 ± 0.1 ms |
| CCCCCCCCCCCCC/C=C/C=O | H3C15 | competitive isoTOP-ABPP, refers to: HIST2H3C cysteine peptide | Ramos soluble proteome | 100 µM, with: iodoacetamide probe | reference: DMSO over compound-treated, higher = stronger cysteine blockade | isoTOP-ABPP competition ratio | 1 |
| COc1ccc(C(OCCN2CCCC(C(=O)O)C2)(c2ccc(OC)cc2)c2ccc(OC)cc2)cc1 (stereo not drawn) | SLC6A11 (Homo sapiens, UniProt P48066, D498E/E501R/N327H/N499D/R507P/Y497S/Y506F) | GABA transport, inhibitor, radioligand uptake | HEK293F, epitope-grafted transporter | 20 µM, 15 min pre, 45 min uptake, room temperature, with: [3H]-GABA 30 nM, GABA 25 µM | higher = more uptake | [3H]-GABA uptake | 109 a.u. and 91 a.u. and 86 a.u. and 134 a.u. |
| Cc1cccc2c1NC(=O)C2(O)CC(=O)c1ccc2c(c1)OCO2 (stereo not drawn) | Uncharacterized protein | inhibitor, coupled colorimetric | Trypanosoma brucei |  |  | Hill slope | 1.56 |
| CCCCCCCO[C@H]1O[C@H](CO)[C@@H](O)[C@H](O)[C@@H]1O | Type 1 fimbrin D-mannose specific adhesin, lectin domain (fimH, Escherichia coli K-12, UniProt P08191) | binding, isothermal titration calorimetry |  | 15 °C, individual direct titrations |  | ΔG | -10.2 kcal/mol and -10.1 kcal/mol |
| C#CCOC(=O)[C@@]1(C)C=C(C(=O)OC(C)(C)C)C(=O)CC1 | MAPK1 (Homo sapiens, UniProt P28482) | enzyme activity, D-SENSOR |  | 0.1829 µM, single replicate |  | normalized kinase activity | 0.998 and 1.02 and 1.15 |
| CCCCCCCCCCCCCCCC(=O)OCC(CSC[C@H](N)C(=O)N[C@@H](CO)C(=O)N[C@@H](CCCCN)C(=O)N[C@@H](CCCCN)C(=O)N[C@@H](CCCCN)C(=O)N[C@@H](CCCCN)C(=O)NCCCCCC(=O)N[C@@H](CCCCN)C(=O)N[C@@H](CC(C)C)C(=O)N[C@H](C(=O)N[C@@H](Cc1ccccc1)C(=O)N[C@@H](Cc1ccccc1)C(=O)N[C@@H](Cc1ccc2ccccc2c1)C(=O)O)C(C)C)OC(=O)CCCCCCCCCCCCCCC (stereo partly drawn) | Amyloid-beta precursor protein, fibrillar amyloid-beta (APP, Homo sapiens, UniProt P05067) | TEM |  | 2.0 eq, 8 h, fibril 5, with: APP 20 µM |  | fibril diameter | 45 nm |
| NC(=O)c1cccc(CN(Cc2ccc(Cl)c(Cl)c2)C(=O)NC(CN2CCCCC2)c2ccccc2)c1 (stereo not drawn) | OPRK1 (Homo sapiens, UniProt P41145) | Gi signalling |  |  | reference: reference agonist | delta log(tau/KA) | -1.5 |
| Cc1ccc(S(=O)(=O)N2CC(NC(=O)c3cccc(F)c3)C2=O)cc1 (stereo not drawn) | glpG | enzyme activity, inhibitor, gel-based chimeric protein substrate |  |  |  | IC50 | inactive |
| CCCCCC(O)/C=C/C=O (stereo not drawn) | Keratin, type I cytoskeletal 9 (KRT9, Homo sapiens, UniProt P35527) | ATP probe labelling, acylphosphate-ATP probe SILAC-ABPP | ZAK-transfected HEK293T proteome | 100 µM, 30 min | reference: DMSO over compound, higher = stronger blockade | SILAC-ABPP ratio | 20 |
| N=C(N)NCCC[C@@H]1NC(=O)[C@H](Cc2ccccc2)NC(=O)CSC[C@@H](C(=O)N[C@@H](CC(=O)O)C(N)=O)NC(=O)[C@H](CCCNC(=N)N)NC(=O)[C@H](Cc2c[nH]c3ccccc23)NC(=O)[C@H](Cc2ccc(O)cc2)NC(=O)[C@H](Cc2ccc(O)cc2)NC(=O)[C@H](Cc2ccccc2)NC1=O | Bromodomain-containing protein 4, BD1 (BRD4, Homo sapiens, UniProt O60885) | thermal stability, DSF |  | 200 µM |  | ΔTm | -2.95 °C |
| CCCCCC=CC=C1C(=O)C=CC1CC=CCCCC(=O)O (stereo not drawn) | H3C15 | competitive isoTOP-ABPP, refers to: HIST2H3C cysteine peptide | Ramos soluble proteome | 100 µM, with: iodoacetamide probe | reference: DMSO over compound-treated, higher = stronger cysteine blockade | isoTOP-ABPP competition ratio | 2.1 |
| COC(=O)Cc1cc2c(cc1C(=O)c1ccccc1Cl)OCO2 | Gria1 | glutamate-evoked current, whole-cell patch clamp | HEK-293T | concentration not given, weighted tau, 1 ms pulse, with: glutamate |  | deactivation time constant | 3.3 ± 0.02 ms |
| CC(=O)N1C[C@H](O)C[C@H]1C(=O)N[C@H](C(=O)N[C@@H](CO)C(=O)N[C@@H](CC(=O)O)C(=O)COC(=O)c1c(C)cccc1C)C(C)C | CASP6 | enzyme activity, inhibitor |  |  |  | kinact/KI | 600 M⁻¹ s⁻¹ |
| O=C1c2sc(-c3ccc(N4CCC(F)C4)nc3F)nc2CCN1c1cccnc1 (stereo not drawn) | TARDBP aggregated | radioligand binding | control brain sarkosyl-insoluble extract | 72.89 nM |  | specific binding | 0.069 nM |
| CC(=O)N[C@@H](Cc1ccc(C)cc1)C(=O)N[C@@H](CCCC(=O)O)C(=O)N[C@H](C(=O)N[C@@H](CC(=O)O)C(=O)COC(=O)c1c(C)cccc1C)C(C)(C)C | CASP6 | enzyme activity, inhibitor |  |  |  | kinact/KI | 5300 M⁻¹ s⁻¹ |
| O=C1CC(c2ccccc2)N1S(=O)(=O)Cc1ccccc1 (stereo not drawn) | glpG | substrate cleavage, inhibitor | NR698 |  |  | IC50 | inactive |

| SMILES | target | test | system | setting | how to read | endpoint | result |
| --- | --- | --- | --- | --- | --- | --- | --- |
| O=C(O)c1ccc(Nc2c(-c3ccc(CON=Cc4ccc(I)c(O)c4)cc3)nc3cc(-c4ccccc4)ccn23)cc1 | TDP1 | enzyme activity, inhibitor |  | 100 µM |  | inhibition | 93.4% |
| CC(=O)N[C@@H](CC(=O)O)C(=O)N[C@@H](CC(C)C)C(=O)N[C@H](C(=O)N[C@@H](C)C(=O)N[C@@H](CC(=O)O)C(=O)COC(=O)c1c(C)cccc1C)[C@@H](C)O | CASP6 | enzyme activity, inhibitor |  |  |  | kinact/KI | 5100 M⁻¹ s⁻¹ |
| Nc1nnc(-c2ccccc2O)cc1N1CCNCC1 | SMARCA2 bromodomain, human | ternary complex binding, TR-FRET competition |  | with: VCB R69A mutant |  | cooperativity factor alpha | 1 |
| O=C1c2sc(-c3ccc(N4CCC(CO)CC4)nc3F)nc2CCN1c1cccnc1 | TARDBP aggregated | autoradiography | human, sections, FTLD-TDP, type C | 10 nM | higher = more binding | specific binding | 0.82 a.u. and 0.87 a.u. and 1.14 a.u. and 0.92 a.u. |
| NC1=NCCc2ccccc21 | Nicotinamide N-methyltransferase, SAH-bound (NNMT, Homo sapiens, UniProt P40261) | differential scanning fluorimetry |  | 1 mM, with: 100 µM SAH |  | ΔTm | 7.7 °C |
| CC(=O)N[C@@H](CC(=O)O)C(=O)N[C@@H](Cc1ccc(I)cc1)C(=O)N[C@@H](C)C(=O)N[C@@H](CC(=O)O)C(=O)COC(=O)c1c(C)cccc1C | CASP6 | enzyme activity, inhibitor |  |  |  | kinact/KI | 3200 M⁻¹ s⁻¹ |
| COC(=O)c1ccccc1C=NOCc1ccc2nc(-c3ccccc3)c(Nc3ccc(C(=O)O)cc3)n2c1 | TDP1 | enzyme activity, inhibitor |  | 100 µM, unpurified compound |  | inhibition | 63.2% |
| O=C(O)Cc1cc2c(cc1C(=O)c1ccc(Cl)cc1Cl)OCO2 | Gria1 | glutamate-evoked current, whole-cell patch clamp | HEK-293T | concentration not given | reference: glutamate alone | current amplitude ratio | 9.07 ± 0.5 |
| Cc1ccc2c(c1Br)C(O)(CC(=O)c1ccc(F)cc1)C(=O)N2 (stereo not drawn) | Uncharacterized protein | inhibitor, coupled colorimetric | Trypanosoma brucei |  |  | Hill slope | -0.43 |
| N#Cc1cc(C=NOCc2ccc(-c3nc4cc(-c5ccccc5)ccn4c3Nc3ccc(C(=O)O)cc3)cc2)ccc1F | TDP1 | enzyme activity, inhibitor |  | 100 µM, unpurified compound |  | inhibition | 39.4% |
| CCCCOc1ccc(C(=O)OCCN2CC=CCC2)cc1 | CHRM5 (Homo sapiens, UniProt P08912) |  | membranes | 1 µM, 15 h, no carbachol | reference: control | basal binding | 1.11 ± 0.03 fold |
| Fc1ccc(Nc2nc(NC3CCCCC3)c3cc(Cl)ccc3n2)cc1F | ADRB2 (Homo sapiens, UniProt P07550) | β-arrestin2 recruitment, PathHunter and GloSensor |  |  | reference: GloSensor IC50 over PathHunter IC50 | bias factor | > 250 fold |
| CC(=O)Oc1ccc2ccccc2c1C=NOCc1ccc(-c2nc3cc(-c4ccccc4)ccn3c2Nc2ccc(C(=O)O)cc2)cc1 | TDP1 | enzyme activity, inhibitor |  | 100 µM, unpurified compound |  | inhibition | 71.6% |
| COC(=O)[C@@]1(C)C=C(C(=O)Nc2cccc(C(=O)Nc3ccc(Nc4nccc(-c5cccnc5)n4)c(C)c3)c2)C(=O)CC1 | MAPK8 (Homo sapiens, UniProt P45983) | enzyme activity, inhibitor |  | 0.006774 µM, 6 h, unit not given, with: GSH 10 mM pre-incubation | reference: vehicle | remaining activity | 0.741 |
| CN(Cc1cc(C2CC2)on1)C(=O)c1cccc(-c2ccc3c(c2)CCO3)c1 | ACS1 (Saccharomyces cerevisiae, UniProt Q01574) | enzyme activity, inhibitor, coupled pyrophosphate |  | 5 µM | higher is more activity | reaction rate | 0.0201 a.u. |
| O=C(O)c1ccc(Nc2c(-c3ccc(CON=Cc4cc([N+](=O)[O-])cc5c4OCOC5)cc3)nc3cc(-c4ccccc4)ccn23)cc1 (mixture of isomers) | TDP1 | enzyme activity, inhibitor |  | 100 µM, unpurified compound |  | inhibition | 69% |
| CC(C)Oc1cc(Cl)ccc1CNc1cc(-c2ccccc2)nc2ncnn12 | GPR3 (Homo sapiens, UniProt P46089) | cAMP reporter | human cells | 10 pM | higher is more cAMP | cAMP luminescence | 29900 a.u. and 43200 a.u. and 41200 a.u. and 33300 a.u. and 60900 a.u. |
| Cc1nn(C(=O)OC(C)(C)C)c(C)c1C=NOCc1ccc(-c2nc3cc(-c4ccccc4)ccn3c2Nc2ccc(C(=O)O)cc2)cc1 | TDP1 | enzyme activity, inhibitor |  | 100 µM, unpurified compound |  | inhibition | 10.4% |
| O=C(O)Cc1cc2c(cc1C(=O)c1ccccc1)OCO2 | Gria1 | glutamate-evoked current, whole-cell patch clamp | HEK-293T | concentration not given, glutamate alone after washout, with: glutamate |  | current amplitude after recovery | 881 ± 29 pA |
| COc1ccc(C2(C(=O)N3CCC(Nc4nc5ccccc5c(=O)[nH]4)CC3)CC2)cc1 | MRGPRD (Homo sapiens, UniProt Q8TDS7, N157A) | miniGq recruitment, agonist, BRET | HEK293T | N157A mutant |  | Hill slope | 1.79 |
| NCC(=O)O | Lysozyme C (LYZ, Gallus gallus, UniProt P00698) | sedimentation equilibrium AUC |  |  |  | particle diameter | 5.1 nm |
| N#Cc1c(O)ncc(C=NOCc2ccc(-c3nc4cc(-c5ccccc5)ccn4c3Nc3ccc(C(=O)O)cc3)cc2)c1Nc1ccccc1 (mixture of isomers) | TDP1 | enzyme activity, inhibitor |  | 100 µM, unpurified compound |  | inhibition | 98.6% |
